# Published values from different studies.
# Method: steady-state kinetics
# B1: enzyme (Lactiplantibacillus plantarum, UniProt Q06115); chain CTAITYQSYNNYFGRNFDYEISYNEMVTITPRKYPLVFRKVENLDHHYAIIGITADVESYPLYYDAMNEKGLCIAGLNFAGYADYKKYDADKVNITPFELIPWLLGQFSSVREVKKNIQKLNLVNINFSEQLPLSPLHWLVADKQESIVIESVKEGLKIYDNPVGVLTNNPNFDYQLFNLNNYRALSNSTPQNSFSEKVDLDSYSRGMGGLGLPGDLSSMSRFVRAAFTKLNSLSMQTESGSVSQFFHILGSVEQQKGLCEVTDGKYEYTIYSSCCDMDKGVYYYRTYDNSQINSVSLNHEHLDTTELISYPLRSEAQYYAVN
# B2: enzyme (Drosophila melanogaster, UniProt P18105); chain MEGAKLSAVRIAVREAPYRQFLGRREPSVVQFPPWSDGKSLIVDQNEFHFDHAFPATISQDEMYQALILPLVDKLLEGFQCTALAYGQTGTGKSYSMGMTPPGEILPEHLGILPRALGDIFERVTARQENNKDAIQVYASFIEIYNEKPFDLLGSTPHMPMVAARCQRCTCLPLHSQADLHHILELGTRNRRVRPTNMNSNSSRSHAIVTIHVKSKTHHSRMNIVDLAGSEGVRRTGHEGVARQEGVNINLGLLSINKVVMSMAAGHTVIPYRDSVLTTVLQASLTAQSYLTFLACISPHQCDLSETLSTLRFGTSAK
# B3: enzyme R85Q (Methanopyrus kandleri, UniProt Q8TWG5); chain MSKVAVIGATGRVGSTAAARLALLDCVNEVTLIARPKSVDKLRGLRRDILDSLAAAQKDAEITIGCERDDYVDADVIVMTAGIPQKPGQTRLDLTKDNAAIIKKYLEGVAEENPEAIVLVVTNPVDVLTYVALKVSGLPKNRVIGLGTHLDSMRFKVLIAKHFNVHMSEVHTRIIGEHGDTMVPVISSTSVGGIPVTRMPGWEDFDVEEAVREVKEAGQRIIETWGGSQFGPAQAITNLVRTILQDERRVLTVSAYLDGEIDGIRDVCIGVPARLGREGVLEIVPIELEEDEMRAFRRSVKVVKEATREAMEAISER
# B4: ermE (Saccharopolyspora erythraea, UniProt P07287); chain MSSSDEQPRPRRRNQDRQHPNQNRPVLGRTERDRNRRQFGQNFLRDRKTIARIAETAELRPDLPVLEAGPGEGLLTRELADRARQVTSYEIDPRLAKSLREKLSGHPNIEVVNADFLTAEPPPEPFAFVGAIPYGITSAIVDWCLEAPTIETATMVTQLEFARKRTGDYGRWSRLTVMTWPLFEWEFVEKVDRRLFKPVPKVDSAIMRLRRRAEPLLEGAALERYESMVELCFTGVGGNIQASLLRKYPRRRVEAALDHAGVGGGAVVAYVRPEQWLRLFERLDQKNEPRGGQPQRGRR
# Chain of UniProt P76594 (whole entry, looked up): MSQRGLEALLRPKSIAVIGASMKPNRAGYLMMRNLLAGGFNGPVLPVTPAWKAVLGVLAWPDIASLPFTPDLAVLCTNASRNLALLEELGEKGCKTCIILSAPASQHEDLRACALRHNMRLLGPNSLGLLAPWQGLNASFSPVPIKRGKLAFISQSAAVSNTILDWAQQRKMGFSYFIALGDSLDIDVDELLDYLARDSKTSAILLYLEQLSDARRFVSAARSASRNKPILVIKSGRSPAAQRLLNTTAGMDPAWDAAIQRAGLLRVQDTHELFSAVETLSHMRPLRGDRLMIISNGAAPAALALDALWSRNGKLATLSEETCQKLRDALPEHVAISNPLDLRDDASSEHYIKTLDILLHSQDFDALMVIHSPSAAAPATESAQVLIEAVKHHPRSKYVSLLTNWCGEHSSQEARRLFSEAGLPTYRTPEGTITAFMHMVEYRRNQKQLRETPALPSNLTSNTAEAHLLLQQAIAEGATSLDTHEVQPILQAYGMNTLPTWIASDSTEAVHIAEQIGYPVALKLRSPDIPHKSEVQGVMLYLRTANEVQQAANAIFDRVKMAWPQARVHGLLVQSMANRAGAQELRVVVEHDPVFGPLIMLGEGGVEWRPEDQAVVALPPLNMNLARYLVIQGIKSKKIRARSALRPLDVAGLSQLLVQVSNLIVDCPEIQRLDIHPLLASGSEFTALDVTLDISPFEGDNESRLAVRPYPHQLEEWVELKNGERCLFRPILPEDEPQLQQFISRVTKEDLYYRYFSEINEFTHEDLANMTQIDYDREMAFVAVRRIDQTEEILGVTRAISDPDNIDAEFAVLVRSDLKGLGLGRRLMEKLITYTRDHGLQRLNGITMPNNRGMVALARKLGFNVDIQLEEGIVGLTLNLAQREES
# Chain of UniProt P0A7B5 (whole entry, looked up): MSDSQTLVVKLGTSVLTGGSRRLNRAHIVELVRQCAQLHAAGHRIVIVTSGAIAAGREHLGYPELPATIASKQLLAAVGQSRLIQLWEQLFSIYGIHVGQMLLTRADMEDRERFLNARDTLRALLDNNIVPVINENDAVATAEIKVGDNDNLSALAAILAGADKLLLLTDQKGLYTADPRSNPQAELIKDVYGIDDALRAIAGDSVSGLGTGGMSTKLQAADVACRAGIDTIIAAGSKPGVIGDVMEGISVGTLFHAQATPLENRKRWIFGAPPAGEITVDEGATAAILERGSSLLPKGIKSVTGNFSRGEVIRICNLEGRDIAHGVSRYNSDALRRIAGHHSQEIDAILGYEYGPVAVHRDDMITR
Substance,substrate,pH,temperature,setting,added,K0.5
"enzyme (Sorghum bicolor, UniProt C5XVQ1)",OC[C@H]1O[C@@](CO)(O[C@H]2O[C@H](CO)[C@@H](O)[C@H](O)[C@H]2O)[C@@H](O)[C@@H]1O,pH 5.6,,not purified,,2300 µM
"proB (Escherichia coli, UniProt P0A7B5)",N[C@@H](CCC(=O)O)C(=O)O,pH 7,30 °C,"Hill coefficient, apparent",10 mM ATP,26000 µM
"enzyme (Listeria monocytogenes, UniProt A0A0H3GFM5)",Nc1ncnc2c1ncn2[C@H]1C[C@H](O)[C@@H](COP(=O)(O)OP(=O)(O)OP(=O)(O)O)O1,pH 7.5,37 °C,"KCl 500 mM, kcat per active site, positive cooperativity",Ti(III) citrate,3.8 µM
"patZ (Escherichia coli, UniProt P76594)",CC(=O)SCCNC(=O)CCNC(=O)[C@H](O)C(C)(C)COP(=O)(O)OP(=O)(O)OC[C@H]1O[C@@H](n2cnc3c(N)ncnc32)[C@H](O)[C@@H]1OP(=O)(O)O,pH 8,37 °C,,,4.2 µM
"ptcA (Enterococcus faecalis, UniProt Q837U7)",NCCCCN,pH 6.9,22 °C,,carbamoyl phosphate 1.0 mM,136 µM
B1 (enzyme),C[C@H](CCC(=O)N[C@@H](Cc1ccccc1)C(=O)O)[C@H]1CC[C@H]2[C@@H]3[C@H](O)C[C@@H]4C[C@H](O)CC[C@]4(C)[C@H]3C[C@H](O)[C@]12C,pH 6.2,37 °C,,,1160 µM
B2 (enzyme),Nc1ncnc2c1ncn2[C@@H]1O[C@H](COP(=O)(O)OP(=O)(O)OP(=O)(O)O)[C@@H](O)[C@H]1O,pH 6.8,25 °C,,"microtubules, Taxol, Mg2+",3.8 µM
B3 (enzyme R85Q),CC(=O)C(=O)O,pH 6,60 °C,,0.3 mM NADH,14000 µM
B4 (ermE),C[S+](CC[C@H](N)C(=O)O)C[C@H]1O[C@@H](n2cnc3c(N)ncnc32)[C@H](O)[C@@H]1O,pH 7.5,,,,4.2 µM
